Measured values collected from several papers.
Lines come from different studies, so protocols differ. ± marks the error that the study gave.
ACHE: Acetylcholinesterase (ACHE, Homo sapiens, UniProt P22303)
UniProt P22303, sequence (whole entry, looked up): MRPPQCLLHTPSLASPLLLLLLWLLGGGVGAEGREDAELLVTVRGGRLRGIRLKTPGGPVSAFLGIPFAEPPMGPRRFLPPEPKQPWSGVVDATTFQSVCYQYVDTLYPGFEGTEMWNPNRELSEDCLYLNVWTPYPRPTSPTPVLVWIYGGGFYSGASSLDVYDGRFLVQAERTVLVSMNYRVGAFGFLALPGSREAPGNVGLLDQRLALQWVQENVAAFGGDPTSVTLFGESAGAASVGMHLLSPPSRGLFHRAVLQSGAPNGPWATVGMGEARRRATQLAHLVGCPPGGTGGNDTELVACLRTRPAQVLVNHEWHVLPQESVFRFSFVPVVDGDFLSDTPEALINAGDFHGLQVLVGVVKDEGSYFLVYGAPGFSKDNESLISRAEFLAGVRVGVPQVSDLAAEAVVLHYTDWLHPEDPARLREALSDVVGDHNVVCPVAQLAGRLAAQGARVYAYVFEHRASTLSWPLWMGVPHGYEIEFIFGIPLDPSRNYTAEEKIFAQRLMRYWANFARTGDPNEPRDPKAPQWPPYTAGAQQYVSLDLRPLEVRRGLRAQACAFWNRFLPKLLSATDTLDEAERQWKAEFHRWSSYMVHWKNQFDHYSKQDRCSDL
cas9: CRISPR-associated endonuclease Cas9/Csn1 (cas9, Streptococcus pyogenes serotype M1, UniProt Q99ZW2)
UniProt Q99ZW2, sequence (whole entry, looked up): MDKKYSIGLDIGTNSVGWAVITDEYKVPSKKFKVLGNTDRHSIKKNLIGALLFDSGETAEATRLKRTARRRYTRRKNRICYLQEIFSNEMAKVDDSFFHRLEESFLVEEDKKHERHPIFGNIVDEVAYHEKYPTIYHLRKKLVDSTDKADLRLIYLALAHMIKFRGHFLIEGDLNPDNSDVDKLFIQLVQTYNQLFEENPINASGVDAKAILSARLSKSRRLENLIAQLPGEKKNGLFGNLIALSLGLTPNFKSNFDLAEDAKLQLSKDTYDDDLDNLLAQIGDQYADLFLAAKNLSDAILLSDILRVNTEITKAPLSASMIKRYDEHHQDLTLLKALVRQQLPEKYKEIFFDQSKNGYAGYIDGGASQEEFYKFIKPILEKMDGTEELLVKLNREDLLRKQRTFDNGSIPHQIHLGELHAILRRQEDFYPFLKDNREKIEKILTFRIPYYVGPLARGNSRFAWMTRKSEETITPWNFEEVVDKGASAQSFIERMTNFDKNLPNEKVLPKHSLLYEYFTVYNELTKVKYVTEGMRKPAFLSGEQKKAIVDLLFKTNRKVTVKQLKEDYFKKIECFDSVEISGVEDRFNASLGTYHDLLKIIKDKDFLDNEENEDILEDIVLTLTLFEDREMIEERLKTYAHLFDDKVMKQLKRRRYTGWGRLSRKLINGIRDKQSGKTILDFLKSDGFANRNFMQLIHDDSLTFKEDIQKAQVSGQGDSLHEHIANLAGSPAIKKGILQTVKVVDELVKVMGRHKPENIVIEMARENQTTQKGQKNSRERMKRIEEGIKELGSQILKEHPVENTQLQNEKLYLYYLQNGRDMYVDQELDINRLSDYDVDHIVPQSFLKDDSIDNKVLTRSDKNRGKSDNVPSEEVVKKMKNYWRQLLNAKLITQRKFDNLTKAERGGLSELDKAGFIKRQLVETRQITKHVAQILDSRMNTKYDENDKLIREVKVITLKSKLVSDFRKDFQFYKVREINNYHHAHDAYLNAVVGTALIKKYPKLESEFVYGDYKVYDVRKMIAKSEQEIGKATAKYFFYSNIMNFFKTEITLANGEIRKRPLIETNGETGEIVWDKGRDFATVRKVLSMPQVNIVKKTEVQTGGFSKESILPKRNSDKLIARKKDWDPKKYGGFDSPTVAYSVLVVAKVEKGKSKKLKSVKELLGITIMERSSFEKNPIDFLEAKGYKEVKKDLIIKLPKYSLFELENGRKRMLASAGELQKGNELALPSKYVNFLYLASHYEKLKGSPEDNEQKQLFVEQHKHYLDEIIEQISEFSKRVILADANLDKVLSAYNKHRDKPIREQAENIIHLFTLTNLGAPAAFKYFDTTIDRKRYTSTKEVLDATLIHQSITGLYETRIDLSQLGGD
UniProt P05181, sequence (whole entry, looked up): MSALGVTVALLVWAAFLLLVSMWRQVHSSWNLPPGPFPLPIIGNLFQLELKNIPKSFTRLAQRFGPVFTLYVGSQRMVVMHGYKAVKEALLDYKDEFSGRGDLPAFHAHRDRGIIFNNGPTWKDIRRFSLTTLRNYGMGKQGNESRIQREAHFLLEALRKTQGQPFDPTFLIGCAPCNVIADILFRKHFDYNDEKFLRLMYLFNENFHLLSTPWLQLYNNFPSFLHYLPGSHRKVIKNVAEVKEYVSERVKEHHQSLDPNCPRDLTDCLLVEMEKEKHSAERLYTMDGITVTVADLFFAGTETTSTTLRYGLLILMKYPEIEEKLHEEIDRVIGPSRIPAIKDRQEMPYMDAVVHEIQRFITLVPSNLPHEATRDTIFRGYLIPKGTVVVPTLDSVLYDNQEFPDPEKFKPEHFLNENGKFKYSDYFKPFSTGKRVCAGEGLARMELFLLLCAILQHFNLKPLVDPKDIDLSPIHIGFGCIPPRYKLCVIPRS
UniProt Q9GZZ6, sequence (whole entry, looked up): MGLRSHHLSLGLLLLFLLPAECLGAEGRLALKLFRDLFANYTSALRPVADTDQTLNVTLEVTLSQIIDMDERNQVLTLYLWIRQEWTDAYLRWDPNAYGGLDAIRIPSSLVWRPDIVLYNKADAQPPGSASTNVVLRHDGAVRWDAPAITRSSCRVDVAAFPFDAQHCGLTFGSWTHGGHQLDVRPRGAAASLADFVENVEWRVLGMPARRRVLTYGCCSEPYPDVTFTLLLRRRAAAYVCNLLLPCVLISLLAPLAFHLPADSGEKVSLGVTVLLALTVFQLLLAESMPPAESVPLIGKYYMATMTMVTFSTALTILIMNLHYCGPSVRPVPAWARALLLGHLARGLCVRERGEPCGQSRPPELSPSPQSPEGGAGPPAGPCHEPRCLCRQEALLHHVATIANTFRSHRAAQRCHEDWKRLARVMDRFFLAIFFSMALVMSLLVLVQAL
UniProt Q05209, sequence (whole entry, looked up): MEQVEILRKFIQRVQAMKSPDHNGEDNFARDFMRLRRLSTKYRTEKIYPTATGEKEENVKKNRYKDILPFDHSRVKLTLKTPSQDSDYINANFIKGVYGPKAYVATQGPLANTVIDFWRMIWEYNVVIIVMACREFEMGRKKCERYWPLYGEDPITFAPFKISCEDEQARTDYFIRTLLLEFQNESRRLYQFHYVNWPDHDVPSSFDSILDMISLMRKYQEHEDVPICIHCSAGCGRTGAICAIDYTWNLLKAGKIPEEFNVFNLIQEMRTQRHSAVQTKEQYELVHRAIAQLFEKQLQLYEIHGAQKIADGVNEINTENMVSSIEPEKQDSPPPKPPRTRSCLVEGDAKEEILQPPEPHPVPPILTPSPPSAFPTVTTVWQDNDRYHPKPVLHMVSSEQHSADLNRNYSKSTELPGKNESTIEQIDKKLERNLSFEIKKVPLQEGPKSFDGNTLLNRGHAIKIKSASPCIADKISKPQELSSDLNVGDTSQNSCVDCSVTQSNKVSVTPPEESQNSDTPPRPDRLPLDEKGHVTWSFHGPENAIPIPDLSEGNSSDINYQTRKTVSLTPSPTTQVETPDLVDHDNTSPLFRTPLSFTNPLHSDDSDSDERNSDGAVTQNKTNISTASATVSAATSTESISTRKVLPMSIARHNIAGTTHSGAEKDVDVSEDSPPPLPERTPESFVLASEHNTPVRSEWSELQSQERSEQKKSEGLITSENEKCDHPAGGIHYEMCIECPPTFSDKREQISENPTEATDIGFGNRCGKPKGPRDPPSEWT
UniProt P80457, sequence (whole entry, looked up): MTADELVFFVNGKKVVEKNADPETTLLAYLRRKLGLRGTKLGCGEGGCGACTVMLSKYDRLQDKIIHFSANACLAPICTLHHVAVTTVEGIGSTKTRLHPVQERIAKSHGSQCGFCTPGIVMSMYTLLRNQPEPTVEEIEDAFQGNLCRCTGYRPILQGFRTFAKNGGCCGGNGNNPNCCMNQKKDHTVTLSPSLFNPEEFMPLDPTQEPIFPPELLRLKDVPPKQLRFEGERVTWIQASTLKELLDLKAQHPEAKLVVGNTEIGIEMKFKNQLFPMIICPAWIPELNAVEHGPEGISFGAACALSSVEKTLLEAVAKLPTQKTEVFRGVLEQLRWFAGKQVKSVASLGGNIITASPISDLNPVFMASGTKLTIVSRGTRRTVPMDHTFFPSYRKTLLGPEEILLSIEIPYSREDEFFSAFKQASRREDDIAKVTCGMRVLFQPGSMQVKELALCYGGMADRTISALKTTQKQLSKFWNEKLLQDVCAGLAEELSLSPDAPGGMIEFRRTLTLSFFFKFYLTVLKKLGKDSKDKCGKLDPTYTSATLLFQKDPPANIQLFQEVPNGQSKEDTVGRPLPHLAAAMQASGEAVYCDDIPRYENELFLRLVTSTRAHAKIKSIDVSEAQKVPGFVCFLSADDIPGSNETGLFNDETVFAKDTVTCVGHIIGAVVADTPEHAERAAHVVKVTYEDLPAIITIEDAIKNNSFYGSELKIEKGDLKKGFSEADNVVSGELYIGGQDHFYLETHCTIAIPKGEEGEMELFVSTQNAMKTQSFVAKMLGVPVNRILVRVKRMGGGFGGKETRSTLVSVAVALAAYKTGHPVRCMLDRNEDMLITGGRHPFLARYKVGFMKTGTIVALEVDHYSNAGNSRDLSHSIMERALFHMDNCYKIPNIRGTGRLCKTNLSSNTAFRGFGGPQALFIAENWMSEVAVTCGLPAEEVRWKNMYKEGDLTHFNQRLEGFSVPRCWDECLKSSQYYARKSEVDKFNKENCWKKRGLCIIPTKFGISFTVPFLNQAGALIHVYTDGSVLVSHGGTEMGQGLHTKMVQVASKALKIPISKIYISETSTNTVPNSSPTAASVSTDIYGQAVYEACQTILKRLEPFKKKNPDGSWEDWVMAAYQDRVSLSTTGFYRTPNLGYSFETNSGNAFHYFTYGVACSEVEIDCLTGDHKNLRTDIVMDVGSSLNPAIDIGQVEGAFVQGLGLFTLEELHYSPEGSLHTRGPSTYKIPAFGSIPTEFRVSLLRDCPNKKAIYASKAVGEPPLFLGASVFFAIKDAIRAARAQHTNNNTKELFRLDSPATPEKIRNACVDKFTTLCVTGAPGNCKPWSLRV

SMILES | target | test | test system | conditions | IC50 [µM]
CC(C)C[C@H](NC(=O)[C@H](CO)NC(=O)[C@H](CO)NC(=O)[C@H](Cc1ccccc1)NC(=O)[C@H](CCC(=O)O)NC(=O)[C@@H](N)CO)C(=O)N1CCC[C@H]1C(=O)N[C@@H](CO)C(=O)N[C@@H](Cc1ccc(O)cc1)C(=O)O | HLA class I histocompatibility antigen, B alpha chain (Homo sapiens, UniProt P01889) | peptide-MHC binding, radioligand competition binding |  |  | > 70
CNC(=O)Oc1cccc2c1OC(C)(C)O2 | Acetylcholinesterase (Rhipicephalus microplus, UniProt O45210, W384F) |  |  |  | 0.018
COc1ccc(S(=O)(=O)Oc2ccc3c(c2)Oc2nc4c(c(N)c2C3c2ccc(Cl)c(Cl)c2)CCCC4)cc1 (stereo not drawn) | ACHE | enzyme activity, inhibitor |  |  | 2.21
CCC(C(=O)Nc1sc(C(N)=O)c(C)c1C(=O)OC)c1ccc(F)cc1 (stereo not drawn) | DNA polymerase processivity factor, with UL42 processivity factor (Human herpesvirus 1, UniProt P10226) | inhibitor |  |  | > 100
Nc1c2c(nc3c1C(c1ccc(Cl)c(Cl)c1)c1ccc(OCC(=O)c4ccc(Cl)cc4)cc1O3)CCCC2 (stereo not drawn) | ACHE | enzyme activity, inhibitor |  |  | 0.252
COc1cc(Nc2ncc(F)c(Nc3ccc4c(n3)NC(=O)C(C)(C)O4)n2)cc(OC)c1OC | PTPN12 (Homo sapiens, UniProt Q05209) |  |  | PTP-PEST | > 10
C[C@H]1CN(c2n[nH]c3nc(N[C@H]4CC[C@H](NS(=O)(=O)CCC(F)(F)F)CC4)ncc23)CCO1 | IRAK1 (Homo sapiens, UniProt P51617) | biochemical |  |  | ≥ 20
COCCCC/C(=N\OCCN)c1ccc(C(F)(F)F)cc1 | Neuronal acetylcholine receptor; alpha9/alpha10 (Homo sapiens, UniProt Q9GZZ6+Q9UGM1) | inhibitor |  |  | 0.76 ± 0.27
O=c1c2ccccc2[nH]c(=S)n1-c1ccccc1 | XDH (Bos taurus, UniProt P80457) | enzyme activity, inhibitor |  |  | 151 ± 4.95
N.N.O=C([O-])C1(C(=O)[O-])CCC1.[Pt+2] | cas9 | circular plasmid substrate | Streptococcus pyogenes |  | 50 to 100
[O]=[V]([OH])([OH])[OH] | Uncharacterized protein (Trypanosoma brucei, UniProt Q38AT7) |  |  |  | 58
Cc1c2oc3c(C)ccc(C(=O)N[C@@H]4C(=O)N[C@H](C(C)C)C(=O)N5CCC[C@H]5C(=O)N(C)CC(=O)N(C)[C@@H](C(C)C)C(=O)O[C@@H]4C)c3nc-2c(C(=O)N[C@@H]2C(=O)N[C@H](C(C)C)C(=O)N3CCC[C@H]3C(=O)N(C)CC(=O)N(C)[C@@H](C(C)C)C(=O)O[C@@H]2C)c(N)c1=O | cas9 | linear substrate | Streptococcus pyogenes |  | 20 to 50
N[C@@H](Cc1cc(I)c(O)c(I)c1)C(=O)O | Cytochrome P450 2E1 (CYP2E1, Homo sapiens, UniProt P05181) | p-nitrophenol hydroxylation, inhibitor | baculosomes | 10 min, with additive 100 µM | 40
O=C(N[C@H](CO)[C@H](O)c1ccc([N+](=O)[O-])cc1)C(Cl)Cl | Gag polyprotein, nucleocapsid protein p7 (gag, Human immunodeficiency virus type 1 group M subtype B, UniProt P04591) | NCp7-RNA binding, AlphaScreen | HIV-1 | together with: 25 nM NCp7, 12.5 nM RNA | 3.36
CCCCCCCCCCCCCC(=O)O[C@@H]1[C@@H](C)[C@@]2(O)[C@@H](C=C(CO)C[C@]3(O)C(=O)C(C)=C[C@@H]23)[C@@H]2C(C)(C)[C@]12OC(C)=O | phorbol ester receptor, mouse | radioligand binding |  |  | 0.00069

Repeated from above:
SMILES | target | test | test system | conditions | IC50 [µM]
N[C@@H](Cc1cc(I)c(O)c(I)c1)C(=O)O | Cytochrome P450 2E1 (CYP2E1, Homo sapiens, UniProt P05181) | p-nitrophenol hydroxylation, inhibitor | baculosomes | 10 min, with additive 100 µM | 40
